Results collected from several papers.
Compare with care: the assays were run in different laboratories.

`CCO[C@H]1CCN(Cc2c(OC)cc(C)c3[nH]ccc23)[C@H](c2ccc(C(=O)O)cc2)C1`: “patients with adverse event” 0% (measured: Hematuria; PNH patients, active haemolysis; oral, 200 mg twice daily, extension phase).
`CNC(=O)c1ccc(-c2cnc3ncc(Cc4ccc5ncccc5c4)n3n2)cc1F`: “patients with adverse event” 29% (measured: Vomiting, all grades; cancer patients; oral, 600 mg twice daily, expansion cohort, any causality).
Under “patients with adverse events”, `C[C@@H](c1ccc2nccn2c1)n1nnc2ncc(-c3cnn(C)c3)nc21` is recorded as 2% (measured: treatment-related grade ≥3 Neutropenia; EGFR-mutant MET-altered NSCLC; oral, dose not given, all).
`Cc1cc(NC2CCN(C(=O)OC3CCN(C(=O)/C=C/CN(C)C)C3)CC2)n2ncc(C(C)C)c2n1` (stereo not drawn): “patients with adverse events” 27% (patients with advanced solid tumours; dose not given, TIW arm, grade 3 or higher).
Under “patients discontinuing for AE”, `C[C@@H](Nc1cc(F)cc(F)c1)c1cc(C(=O)N(C)C)cc2c(=O)cc(N3CCOCC3)oc12` is recorded as 0% (measured: Hypotension; advanced solid tumour patients; oral, dose not given, dose expansion).
For `COc1cc(Nc2ncc3c(n2)-c2ccc(Cl)cc2C(c2c(F)cccc2OC)=NC3)ccc1C(=O)O`, “patients with adverse event” read 25% (measured: increased ALP, all grades; cancer patients, phase 1/2; oral, dose not given, with: pembrolizumab).
`C=CC(=O)NC1CCN(c2ncc3ncnc(Nc4ccc(Oc5ccc6c(c5)ncn6C)c(C)c4)c3n2)CC1` — result for “patients with back pain”: 0% (male patients; oral, dose not given, treatment-related adverse events).
`O=C(Nc1nc2cccc(-c3ccc(CN4CCS(=O)(=O)CC4)cc3)n2n1)C1CC1` — result for “patients with Vomiting”: 0% (rheumatoid arthritis patients; oral, 100 mg twice daily, 4 weeks, TEAE regardless of relatedness).
For `CNC(=O)c1cc(Oc2ccc(NC(=O)Nc3cc(C(C)(C)C)nn3-c3ccc4ncccc4c3)c(F)c2)ccn1`, “patients with grade 1 musculoskeletal disorders” read 20% (patients; oral, dose not given, cycles 1 and 2, Low AUC subgroup).
Under “patients with fatigue”, `COc1ccc([C@@H](O)c2cc(-c3ncnc4cc(N5CCOCC5)ccc34)c(F)cc2Cl)nn1` is recorded as 17% (locally advanced rectal cancer patients; 150 mg, drug-related adverse events, with: capecitabine and radiotherapy).
For `CCOc1c([C@H](C)n2nc(C)c3c(N)ncnc32)cc(Cl)c(F)c1[C@@H]1CNC(=O)C1`, the patients was 100% (measured: QTcF ≤450 ms; previously treated B-cell malignancy; oral, 30 mg once daily, overall population).
For `Cc1cc(-c2nnc(N)nc2-c2ccc(F)cc2)cc(Cl)n1`, “patients with immune-mediated AE” read 0% (measured: Hypothyroidism; IO-naive mCRPC patients, male; oral, dose not given, treatment-related, all grades).
